# Published values from different studies.
# Compare with care: the assays were run in different laboratories. Values joined by “and” are separate records of one study, mostly repeats; a detail may differ. Numbers after ± are the reported error.
Compound,organism,assay,test system,setting,scale,quantity,result
O=C(O)c1ncn(COCCOCc2ccccc2)c1C(=O)O,Mammarenavirus lassaense,viral replication,Vero,48 h,,IC90,> 50 µg/mL
Cc1cc(C)c(SCC2OC(OC3C(N)CC(N)C(OC4OC(CN)C(O)CC4N)C3O)C(O)C(N)C2O)c(C)c1 (centres unmarked),Bacillus anthracis,,Sterne 34F2,,,MIC,18.8 µg/mL
CN1CCN(C(=O)N[C@@H](Cc2ccccc2)C(=O)N[C@H](/C=C/S(=O)(=O)c2ccccc2)CCc2ccccc2)CC1,Marburg marburgvirus,viral entry,HEK-293T,pseudovirus,,IC50,0.0019 ± 0.00016 µM
COC(=O)c1ncn(CCOP(=O)(O)O)c1C(=O)OC,Zaire ebolavirus,"viral replication, inhibitor",Vero,72 h,,IC50,12 µg/mL
CN[C@@H]1[C@H](O)[C@H](NC)[C@H]2O[C@]3(O)[C@H](O[C@@H]2[C@H]1O)O[C@H](C)C[C@H]3NC(=O)Cc1ccccn1,Bacillus anthracis,microbial growth,STERNE34F2,,,MIC,50 µg/mL
Cn1cnc(Cn2c(=O)[nH]/c(=N\c3cc4cn(C)nc4cc3Cl)n(Cc3cc(F)c(F)cc3F)c2=O)n1,canine coronavirus,"viral replication, qRT-PCR",CRFK,48 h,,IC50,58.3 µM
CN[C@@H]1[C@H](O)[C@H](NC)[C@H]2O[C@]3(O)[C@H](O[C@@H]2[C@H]1O)O[C@H](C)C[C@]3(O)CNCc1ccc(F)cc1,Legionella pneumophila,,ATCC 33153,"40 µg per disc, 48 h",,inhibition zone diameter,0 mm
CC[C@H](C)[C@H](NC(=O)[C@H](C)NC(=O)[C@H](CCC(=O)O)NC(=O)[C@H](CCC(=O)O)NC(=O)[C@H](CC(C)C)NC(=O)[C@H](CCCCN)NC(=O)[C@H](CCCCN)NC(=O)[C@H](CCSC)NC(=O)[C@H](CCC(=O)O)NC(=O)[C@H](Cc1ccc(O)cc1)NC(=O)[C@H](CCC(=O)O)NC(=O)[C@H](CC(C)C)NC(=O)[C@H](CC(=O)O)NC(=O)[C@H](CC(C)C)NC(=O)[C@H](Cc1ccccc1)NC(=O)[C@@H](NC(=O)[C@@H](NC(=O)[C@H](CC(N)=O)NC(=O)[C@@H](NC(=O)[C@H](CCC(N)=O)NC(=O)[C@H](CC(=O)O)NC(=O)[C@H](CC(C)C)NC(=O)[C@H](CO)NC(C)=O)[C@@H](C)CC)C(C)C)[C@@H](C)O)C(=O)N[C@@H](CCCCN)C(=O)N[C@@H](CCCCN)C(=O)N[C@@H](CC(C)C)C(=O)N[C@@H](CCC(=O)O)C(=O)N[C@@H](CCC(=O)O)C(=O)N[C@@H](CO)C(=O)N[C@@H](Cc1ccc(O)cc1)C(=O)N[C@H](C(=O)N[C@@H](CC(=O)O)C(=O)N[C@@H](CC(C)C)C(=O)N[C@@H](CCCCN)C(=O)N[C@@H](CCC(=O)O)C(=O)N[C@@H](CC(C)C)C(=O)NCC(=O)N[C@@H](CO)C(=O)NCC(=O)N[C@@H](CCCCNC(=O)[C@H](CSSC[C@H](NC(C)=O)C(=O)NCCCC[C@H](NC(=O)CNC(=O)[C@H](CO)NC(=O)CNC(=O)[C@H](CC(C)C)NC(=O)[C@H](CCC(=O)O)NC(=O)[C@H](CCCCN)NC(=O)[C@H](CC(C)C)NC(=O)[C@H](CC(=O)O)NC(=O)[C@@H](NC(=O)[C@H](Cc1ccc(O)cc1)NC(=O)[C@H](CO)NC(=O)[C@H](CCC(=O)O)NC(=O)[C@H](CCC(=O)O)NC(=O)[C@H](CC(C)C)NC(=O)[C@H](CCCCN)NC(=O)[C@H](CCCCN)NC(=O)[C@@H](NC(=O)[C@H](C)NC(=O)[C@H](CCC(=O)O)NC(=O)[C@H](CCC(=O)O)NC(=O)[C@H](CC(C)C)NC(=O)[C@H](CCCCN)NC(=O)[C@H](CCCCN)NC(=O)[C@H](CCSC)NC(=O)[C@H](CCC(=O)O)NC(=O)[C@H](Cc1ccc(O)cc1)NC(=O)[C@H](CCC(=O)O)NC(=O)[C@H](CC(C)C)NC(=O)[C@H](CC(=O)O)NC(=O)[C@H](CC(C)C)NC(=O)[C@H](Cc1ccccc1)NC(=O)[C@@H](NC(=O)[C@@H](NC(=O)[C@H](CC(N)=O)NC(=O)[C@@H](NC(=O)[C@H](CCC(N)=O)NC(=O)[C@H](CC(=O)O)NC(=O)[C@H](CC(C)C)NC(=O)[C@H](CO)NC(C)=O)[C@@H](C)CC)C(C)C)[C@@H](C)O)[C@@H](C)CC)[C@@H](C)CC)C(N)=O)NC(C)=O)C(N)=O)[C@@H](C)CC,SARS-CoV-2 Wuhan,viral replication,VeroE6/TMPRSS2 cells,,reference: corresponding monomer,fold change IC50 vs corresponding monomer,1.07
CC[C@H](C)[C@H](NC(=O)[C@H](CCCCN)NC(=O)[C@H](CCCCN)NC(=O)[C@H](CC(C)C)NC(=O)[C@H](Cc1c[nH]c2ccccc12)NC(=O)CN)C(=O)NCC(=O)N[C@@H](CCCCN)C(=O)N[C@@H](CCCCN)C(=O)N[C@H](C(=O)N[C@@H](CCC(=O)O)C(=O)N[C@@H](CCCNC(=N)N)C(=O)N[C@H](C(=O)NCC(=O)N[C@@H](CCC(N)=O)C(=O)N[C@@H](Cc1c[nH]cn1)C(=O)N[C@H](C(=O)N[C@@H](CCCNC(=N)N)C(=O)N[C@@H](CC(=O)O)C(=O)N[C@@H](C)C(=O)N[C@H](C(=O)N[C@H](C(=O)N[C@@H](CCC(N)=O)C(=O)N[C@H](C(=O)N[C@H](C(=O)NCC(=O)N[C@H](C(=O)N[C@@H](C)C(=O)N[C@@H](CCC(N)=O)C(=O)N[C@@H](CCC(N)=O)C(=O)N[C@@H](C)C(=O)N[C@@H](C)C(=O)N[C@@H](CC(N)=O)C(=O)N[C@H](C(=O)N[C@@H](C)C(=O)N[C@@H](C)C(=O)N[C@H](C(=O)N[C@@H](CC(C)C)C(=O)N[C@@H](CCCCN)C(N)=O)[C@@H](C)O)C(C)C)C(C)C)[C@@H](C)CC)[C@@H](C)O)[C@@H](C)CC)[C@@H](C)O)[C@@H](C)O)C(C)C)[C@@H](C)CC,Staphylococcus epidermidis,,"ATCC 35984, CAMHB",,,MIC,> 1020 µg/mL
O=S(=O)(O)c1cccc(-c2c3nc(c(-c4cccc(S(=O)(=O)O)c4Cl)c4ccc([nH]4)c(-c4cccc(S(=O)(=O)O)c4Cl)c4nc(c(-c5cccc(S(=O)(=O)O)c5Cl)c5ccc2[nH]5)C=C4)C=C3)c1Cl,vaccinia virus,viral replication,"CV-1, IHD-J",,,EC50,1 ± 0.1 µg/mL
COC(=O)c1ncn(C2OC(COC(C)=O)C(OC(C)=O)C2OC(C)=O)c1C(=O)OC (centres unmarked),Zaire ebolavirus,"viral replication, inhibitor",Vero,72 h,,IC50,19 µg/mL
Oc1cc(Br)ccc1Oc1ccccc1,Francisella tularensis,bacterial growth,LVS,,,MIC90,0.004 ± 0.001 µg/mL
CN1CCN(CCCN2c3ccccc3Sc3ccc(C(F)(F)F)cc32)CC1,SARS coronavirus,,"Vero 76, Urbani",,,EC90,8 µM
O=[N+]([O-])c1ccc(-n2nc(-c3ccccc3)cc2-c2ccc(F)cc2)c([N+](=O)[O-])c1,Japanese encephalitis virus,western blot,Neuro2a,"15 µM, 72 h, post-treatment",,NS1 protein reduction,~78%
Cc1ccc(N2CC(N3CCC(C)(O)CC3)C2)cc1C(=O)NC1(c2ccc3c4c(cccc24)CC3)CC1,SARS-CoV-2,viral replication,"Vero C1008, wild type",0.005716 µM,,inhibition,0%
C[N+]1=C2C(c3ccc([N+](=O)[O-])cc3)=[N+]([O-])c3ccccc3N2CCC1,Clostridium perfringens,microbial growth,,,,MIC50,0.25 µg/mL
Cc1ccc(NS(=O)(=O)c2c(C(=O)N3CCCCCC3)c(C)n(C)c2C)c(Cl)c1,Vaccinia virus,viral infection,HaCaT,"33.33 µM, 36 h",reference: untreated,infection,0.826% and 0.573% and 0.484%
[O-][N+]1=C(c2ccccc2)C2=NCCN2c2ccccc21,Clostridium perfringens,,,,,MIC90,1 µg/mL
NNC(=O)c1ncn(C2OC(CO)C(O)C2O)c1C(=O)NN (centres unmarked),Severe acute respiratory syndrome coronavirus,viral replication,Vero,48 h,,IC50,35 µg/mL
CC(C)CC(C(=O)N1CC2(CC1C#N)C(=O)Nc1ccccc12)N(C)C(=O)c1cc2c(F)cc(F)c(F)c2[nH]1 (centres unmarked),SARS-CoV-2,"viral replication, infectious virus",Vero E6,0.3 µM,,inhibition,100%
O=[N+]([O-])c1ccc(-n2nc(-c3ccc(F)cc3)cc2-c2ccc(F)cc2)c([N+](=O)[O-])c1,Japanese encephalitis virus,,"SA14-14-2, BALB/c mice, brain","ip, 100 mg/kg/day",reference: untreated,viral RNA reduction,~43%
[O-][N+]1=C(c2ccccc2)C2=NCCCN2c2ncccc21,Clostridium butyricum,,,,,MIC,≤ 0.06 µg/mL
O=C(C=Cc1ccc(O)c(O)c1)OC1CC(O)(C(=O)O)CC(OC(=O)C=Cc2ccc(O)c(O)c2)C1O (centres unmarked),Severe acute respiratory syndrome coronavirus 2,cytopathic effect,Vero C1008,6.25 µM,,inhibition,0%

# Excerpt of the above:
Compound,organism,assay,test system,setting,scale,quantity,result
COC(=O)c1ncn(C2OC(COC(C)=O)C(OC(C)=O)C2OC(C)=O)c1C(=O)OC (centres unmarked),Zaire ebolavirus,"viral replication, inhibitor",Vero,72 h,,IC50,19 µg/mL
